Measured values from different studies.
Lines come from different studies, so protocols differ.
Chain of UniProt O60674 (whole entry, looked up): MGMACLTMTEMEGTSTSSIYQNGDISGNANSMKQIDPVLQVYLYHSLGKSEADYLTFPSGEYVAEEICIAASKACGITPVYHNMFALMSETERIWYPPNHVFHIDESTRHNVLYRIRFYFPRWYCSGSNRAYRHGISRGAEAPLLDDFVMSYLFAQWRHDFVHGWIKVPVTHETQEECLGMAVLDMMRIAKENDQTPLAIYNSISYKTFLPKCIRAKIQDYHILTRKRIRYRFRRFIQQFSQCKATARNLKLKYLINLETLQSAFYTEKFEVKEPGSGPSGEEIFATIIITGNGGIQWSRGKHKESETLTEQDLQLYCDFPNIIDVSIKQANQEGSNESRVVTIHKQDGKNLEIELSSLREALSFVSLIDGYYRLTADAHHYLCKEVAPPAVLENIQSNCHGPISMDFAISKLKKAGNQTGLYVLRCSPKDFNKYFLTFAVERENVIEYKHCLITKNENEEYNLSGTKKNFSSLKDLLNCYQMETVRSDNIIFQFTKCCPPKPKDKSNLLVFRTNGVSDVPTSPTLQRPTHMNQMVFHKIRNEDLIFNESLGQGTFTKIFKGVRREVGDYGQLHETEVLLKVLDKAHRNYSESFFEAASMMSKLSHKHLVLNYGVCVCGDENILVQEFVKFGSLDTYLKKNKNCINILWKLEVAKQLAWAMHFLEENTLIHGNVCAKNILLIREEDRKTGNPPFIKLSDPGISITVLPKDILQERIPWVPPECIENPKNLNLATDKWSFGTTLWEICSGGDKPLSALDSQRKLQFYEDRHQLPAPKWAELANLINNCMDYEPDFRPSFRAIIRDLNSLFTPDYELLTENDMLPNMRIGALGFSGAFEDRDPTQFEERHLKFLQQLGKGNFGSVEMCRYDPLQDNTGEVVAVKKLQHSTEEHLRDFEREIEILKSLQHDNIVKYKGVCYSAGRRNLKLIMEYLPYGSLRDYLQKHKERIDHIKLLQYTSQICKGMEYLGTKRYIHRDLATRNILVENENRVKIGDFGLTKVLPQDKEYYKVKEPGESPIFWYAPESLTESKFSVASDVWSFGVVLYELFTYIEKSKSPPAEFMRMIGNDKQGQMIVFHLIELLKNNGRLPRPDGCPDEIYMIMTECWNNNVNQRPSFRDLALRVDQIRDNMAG

Compound	target or system	assay	test system	setting	scale	endpoint	result
N=C(N)NCCC[C@H](NC(=O)CCCCCNC(=O)[C@H](CCCNC(=N)N)NC(=O)[C@H](CCCNC(=N)N)NC(=O)CCCCCNC(=O)[C@H](CCCNC(=N)N)NC(=O)[C@H](CCCNC(=N)N)NC(=O)CCCCCNC(=O)[C@H](CCCNC(=N)N)NC(=O)[C@H](CCCNC(=N)N)NC(=O)CCCCCNC(=O)[C@@H](N)CCCNC(=N)N)C(=O)NCCCCCC(=O)NCCC(=O)O	Escherichia coli	broth microdilution	ATCC 25922, Mueller-Hinton broth	added: MgCl2 20 mM		MIC	> 192 µM
CCCCCCCCCC(=O)N[C@@H](Cc1c[nH]c2ccccc12)C(=O)N[C@H](CC(N)=O)C(=O)N[C@@H](CC(=O)O)C(=O)N[C@@H]1C(=O)NCC(=O)N[C@@H](CCCN)C(=O)N[C@@H](CC(=O)O)C(=O)N[C@H](C)C(=O)N[C@@H](CC(=O)O)C(=O)NCC(=O)N[C@H](CO)C(=O)N[C@@H]([C@H](C)CC(=O)O)C(=O)N[C@@H](CC(=O)c2ccccc2N)C(=O)O[C@@H]1C	Streptococcus pyogenes	broth microdilution	sensitive clinical isolate	overnight, 37 °C		MIC	8 µg/mL
N=C(N)NCCC[C@H](NC(=O)CN)C(=O)N[C@@H](Cc1c[nH]c2ccccc12)C(=O)N[C@@H](CCCNC(=N)N)C(=O)N[C@@H](Cc1c[nH]c2ccccc12)C(=O)N[C@@H](Cc1c[nH]c2ccccc12)C(=O)N[C@@H](Cc1c[nH]c2ccccc12)C(=O)N[C@@H](CCCNC(=N)N)C(=O)N[C@@H](Cc1c[nH]c2ccccc12)C(=O)N[C@@H](CCCNC(=N)N)C(=O)N[C@@H](Cc1c[nH]c2ccccc12)C(N)=O	Candida albicans	broth microdilution	CGMCC 2.209, RPMI 1640-MOPS	48 h, 30 °C, added: MgCl2 1 mM		MIC	4 µM
C[C@@H](O)[C@H](NC(=O)[C@H](Cc1ccccc1)NC(=O)[C@H](Cc1c[nH]c2ccccc12)NC(=O)[C@H](Cc1ccccc1)NC(=O)[C@@H](NC(=O)[C@H](Cc1ccccc1)NC(=O)[C@H](CCCNC(=N)N)NC(=O)[C@@H](N)CCCNC(=N)N)[C@@H](C)O)C(=O)N[C@@H](Cc1ccccc1)C(=O)N[C@@H](CCCNC(=N)N)C(=O)N[C@@H](CCCNC(=N)N)C(N)=O	Lacticaseibacillus rhamnosus		1.038, probiotic strain	24 h, 37 °C, tested up to 128 µM		MIC	8 µM
CC1(C)SC2C(NC(=O)C(NC(=O)C3=C(O)C(Cc4ccc(F)cc4)NC3=O)c3ccccc3)C(=O)N2C1C(=O)O (stereo not shown)	Escherichia coli	broth microdilution	JW0790-2 fiu deletion mutant	ferric iron uptake gene		MIC	25 µg/mL
CC(C)C[C@H](NC(=O)[C@H](C)NC(=O)[C@@H](NC(=O)[C@H](C)NC(=O)[C@H](CC(C)C)NC(=O)[C@H](Cc1c[nH]c2ccccc12)NC(=O)[C@@H]1CCCN1C(=O)[C@H](C)N)C(C)C)C(=O)N[C@@H](CS)C(=O)N1CCC[C@H]1C(=O)NCC(=O)O	Staphylococcus cohnii	broth microdilution	L5	18 h, 37 °C		MIC	> 512 µM
N=C(N)NCCC[C@H](NC(=O)[C@H](Cc1c[nH]c2ccccc12)NC(=O)[C@H](CCCNC(=N)N)NC(=O)[C@H](Cc1c[nH]c2ccccc12)NC(=O)[C@H](Cc1c[nH]c2ccccc12)NC(=O)[C@H](Cc1c[nH]c2ccccc12)NC(=O)[C@H](CCCNC(=N)N)NC(=O)[C@H](Cc1c[nH]c2ccccc12)NC(=O)[C@@H](N)CCCNC(=N)N)C(=O)N[C@@H](Cc1c[nH]c2ccccc12)C(N)=O	Candida albicans	broth microdilution	CGMCC 2.209, RPMI 1640-MOPS	48 h, 30 °C, added: NaCl 150 mM		MIC	32 µM
COc1cc([C@@H]2c3cc4c(cc3[C@@H](O[C@@H]3O[C@@H]5CO[C@@H](c6cccs6)O[C@H]5[C@H](O)[C@H]3O)[C@H]3COC(=O)[C@H]23)OCO4)cc(OC)c1O	human coronavirus OC43	virus-induced cell killing	MRC-5	screen		maximum inhibition	2.59%
CC[C@H](C)[C@H](NC(=O)[C@H](C)NC(=O)[C@H](CCCCN)NC(=O)[C@H](CC(C)C)NC(=O)[C@H](C)NC(=O)[C@@H](NC(=O)[C@H](Cc1c[nH]cn1)NC(=O)[C@H](CC(C)C)NC(=O)[C@@H](NC(=O)[C@@H](NC(=O)[C@H](CCCCN)NC(=O)[C@H](C)NC(=O)[C@H](C)NC(=O)[C@H](CO)NC(=O)[C@H](CCCCN)NC(=O)[C@H](Cc1ccccc1)NC(=O)[C@@H](NC(=O)[C@H](CCCCN)NC(=O)[C@H](CC(C)C)NC(=O)[C@H](Cc1ccccc1)NC(=O)[C@H](CO)NC(=O)[C@H](CCCCN)NC(=O)[C@H](Cc1c[nH]c2ccccc12)NC(=O)[C@H](CCCCN)NC(C)=O)[C@@H](C)O)[C@@H](C)O)C(C)C)[C@@H](C)O)C(=O)N[C@@H](CO)C(=O)N[C@@H](CO)C(N)=O	Klebsiella pneumoniae		non-ESBL	geometric mean of 40 strains		MIC	5.96 µg/mL
C[C@H]1CN(c2n[nH]c3nc(N[C@H]4CC[C@H](NS(=O)(=O)CCC(F)(F)F)CC4)ncc23)CCO1	Tyrosine-protein kinase JAK2 (JAK2, Homo sapiens, UniProt O60674)	inhibitor, Kinobeads competition profiling		0.032 µM	baseline: vehicle	relative abundance	0.98
N=C(N)c1ccc(OCc2ccc(-c3ccccc3)cc2COc2ccc(C(=N)N)cc2)cc1	Escherichia coli		mcr-1	20 h, compound alone		MIC	100 µg/mL
CC[C@H](C)[C@H](NC(=O)[C@H](CCCCN)NC(=O)[C@H](CCCCN)NC(=O)[C@H](Cc1ccccc1)NC(=O)[C@@H](NC(=O)[C@@H](NC(=O)[C@H](CCCNC(=N)N)NC(=O)[C@H](Cc1ccccc1)NC(=O)[C@@H](NC(=O)[C@H](CCCCN)NC(=O)[C@H](CCCCN)NC(=O)[C@@H](N)CCSC)[C@@H](C)CC)C(C)C)[C@@H](C)CC)C(=O)N[C@@H](CC(C)C)C(=O)N[C@@H](CCCCN)C(=O)N[C@@H](CCCNC(=N)N)C(=O)N[C@@H](CC(C)C)C(=O)N[C@H](C(=O)N[C@H](C(=O)O)C(C)C)[C@@H](C)CC	Staphylococcus aureus	broth microdilution	GU-1 MRSA	added: 4.5 mM KCl		MIC	4 µg/mL
CC(C)[C@H](NC(=O)[C@H](CCCNC(=N)N)NC(=O)[C@H](Cc1c[nH]c2ccccc12)NC(=O)[C@H](CCCNC(=N)N)NC(=O)[C@H](Cc1c[nH]c2ccccc12)NC(=O)[C@H](Cc1c[nH]c2ccccc12)NC(=O)[C@H](Cc1c[nH]c2ccccc12)NC(=O)[C@H](CCCNC(=N)N)NC(=O)[C@H](Cc1c[nH]c2ccccc12)NC(=O)[C@@H](N)CCCNC(=N)N)C(N)=O	Candida albicans		CGMCC 2.209	no added salts		MIC	16 µM
CC1(C)S[C@@H]2[C@H](NC(=O)[C@H](N)c3ccccc3)C(=O)N2[C@H]1C(=O)O	Escherichia coli	broth microdilution	isolate IU, CTX-M-14, TEM-1	added: clavulanic acid 6 µg/mL		MIC	200 µg/mL
C[C@H](NC(=O)[C@H](CCCNC(=N)N)NC(=O)[C@H](Cc1c[nH]c2ccccc12)NC(=O)[C@H](CCCNC(=N)N)NC(=O)[C@H](Cc1c[nH]c2ccccc12)NC(=O)[C@H](Cc1c[nH]c2ccccc12)NC(=O)[C@H](Cc1c[nH]c2ccccc12)NC(=O)[C@H](CCCNC(=N)N)NC(=O)[C@H](Cc1c[nH]c2ccccc12)NC(=O)[C@H](CCCNC(=N)N)NC(=O)CN)C(N)=O	Candida albicans	broth microdilution	56467, RPMI 1640-MOPS	48 h, 30 °C		MIC	8 µM
C[C@@H](O)[C@H]1C(=O)N2C(C(=O)O)=C(SCCN=CN)C[C@H]12	Klebsiella pneumoniae	broth microdilution	KPC-100 producing			MIC	16 µg/mL
CC[C@H](C)[C@H](NC(=O)[C@H](CCCNC(=N)N)NC(=O)[C@H](Cc1c[nH]c2ccccc12)NC(=O)[C@H](CCCNC(=N)N)NC(=O)[C@H](Cc1c[nH]c2ccccc12)NC(=O)[C@H](Cc1c[nH]c2ccccc12)NC(=O)[C@H](Cc1c[nH]c2ccccc12)NC(=O)[C@H](CCCNC(=N)N)NC(=O)[C@H](Cc1c[nH]c2ccccc12)NC(=O)[C@H](CCCNC(=N)N)NC(=O)CN)C(N)=O	Candida albicans	broth microdilution	CGMCC 2.209, RPMI 1640-MOPS	48 h, 30 °C, added: FeCl3 4 µM		MIC	16 µM
CCN1CCN(C(=O)N[C@@H](C(=O)N[C@@H]2C(=O)N3[C@@H]2SC(C)(C)[C@@H]3C(=O)O)c2ccccc2)C(=O)C1=O	Escherichia coli	broth microdilution	JW0790-2 fiu deletion mutant	ferric iron uptake gene		MIC	3.12 µg/mL
N=C(N)NCCC[C@H](NC(=O)CN)C(=O)N[C@@H](Cc1c[nH]c2ccccc12)C(=O)N[C@@H](CCCNC(=N)N)C(=O)N[C@@H](Cc1c[nH]c2ccccc12)C(=O)N[C@@H](Cc1c[nH]c2ccccc12)C(=O)N[C@@H](Cc1c[nH]c2ccccc12)C(=O)N[C@@H](CCCNC(=N)N)C(=O)N[C@@H](Cc1c[nH]c2ccccc12)C(=O)N[C@@H](CCCNC(=N)N)C(=O)N[C@@H](Cc1ccccc1)C(N)=O	Candida albicans	broth microdilution	CGMCC 2.209, RPMI 1640-MOPS	48 h, 30 °C, added: NaCl 150 mM		MIC	16 µM
CC1(C)SC2C(NC(=O)C(NC(=O)C3=C(O)C(Cc4ccc(O)cc4)NC3=O)c3ccccc3)C(=O)N2C1C(=O)O (stereo not shown)	Escherichia coli	broth microdilution	Keio mutant JW0146-2	18 h, ferric hydroxamate uptake gene		MIC	50 µg/mL
OC(Cn1cncn1)(Cn1cncn1)c1ccc(F)cc1F	Nakaseomyces glabratus		azole-resistant, RPMI 1640	24 h, 35 °C		MIC	100 µM
CC(C)C1NC(=O)C(C(=O)NC(C(=O)NC2C(=O)N3C2SC(C)(C)C3C(=O)O)c2ccccc2)=C1O (stereo not shown)	Escherichia coli	broth microdilution	isolate IU 356 A, KPC-3, VIM-1, TEM	no clavulanic acid		MIC	> 200 µg/mL
O=C(O)CN1C(=O)c2cccc3cccc(c23)C1=O	human coronavirus OC43	virus-induced cell killing	MRC-5	screen		maximum inhibition	6.33%
N=C(N)NCCC[C@H](NC(=O)[C@H](Cc1c[nH]c2ccccc12)NC(=O)[C@H](CCCNC(=N)N)NC(=O)[C@H](Cc1c[nH]c2ccccc12)NC(=O)[C@H](Cc1c[nH]c2ccccc12)NC(=O)[C@H](Cc1c[nH]c2ccccc12)NC(=O)[C@H](CCCNC(=N)N)NC(=O)[C@H](Cc1c[nH]c2ccccc12)NC(=O)[C@@H](N)CCCNC(=N)N)C(=O)N[C@@H](Cc1ccccc1)C(N)=O	Candida albicans	broth microdilution	SP3902, RPMI 1640-MOPS	48 h, 30 °C		MIC	8 µM
CC1(C)SC2C(NC(=O)C(NC(=O)C3=C(O)C(Cc4ccccc4)NC3=O)c3ccccc3)C(=O)N2C1C(=O)O (stereo not shown)	Escherichia coli	broth microdilution	JW0790-2 fiu deletion mutant	ferric iron uptake gene		MIC	12.5 µg/mL

A few entries again:
Compound	target or system	assay	test system	setting	scale	endpoint	result
C[C@@H](O)[C@H]1C(=O)N2C(C(=O)O)=C(SCCN=CN)C[C@H]12	Klebsiella pneumoniae	broth microdilution	KPC-100 producing			MIC	16 µg/mL
CC[C@H](C)[C@H](NC(=O)[C@H](CCCNC(=N)N)NC(=O)[C@H](Cc1c[nH]c2ccccc12)NC(=O)[C@H](CCCNC(=N)N)NC(=O)[C@H](Cc1c[nH]c2ccccc12)NC(=O)[C@H](Cc1c[nH]c2ccccc12)NC(=O)[C@H](Cc1c[nH]c2ccccc12)NC(=O)[C@H](CCCNC(=N)N)NC(=O)[C@H](Cc1c[nH]c2ccccc12)NC(=O)[C@H](CCCNC(=N)N)NC(=O)CN)C(N)=O	Candida albicans	broth microdilution	CGMCC 2.209, RPMI 1640-MOPS	48 h, 30 °C, added: FeCl3 4 µM		MIC	16 µM
CCN1CCN(C(=O)N[C@@H](C(=O)N[C@@H]2C(=O)N3[C@@H]2SC(C)(C)[C@@H]3C(=O)O)c2ccccc2)C(=O)C1=O	Escherichia coli	broth microdilution	JW0790-2 fiu deletion mutant	ferric iron uptake gene		MIC	3.12 µg/mL
N=C(N)NCCC[C@H](NC(=O)CN)C(=O)N[C@@H](Cc1c[nH]c2ccccc12)C(=O)N[C@@H](CCCNC(=N)N)C(=O)N[C@@H](Cc1c[nH]c2ccccc12)C(=O)N[C@@H](Cc1c[nH]c2ccccc12)C(=O)N[C@@H](Cc1c[nH]c2ccccc12)C(=O)N[C@@H](CCCNC(=N)N)C(=O)N[C@@H](Cc1c[nH]c2ccccc12)C(=O)N[C@@H](CCCNC(=N)N)C(=O)N[C@@H](Cc1ccccc1)C(N)=O	Candida albicans	broth microdilution	CGMCC 2.209, RPMI 1640-MOPS	48 h, 30 °C, added: NaCl 150 mM		MIC	16 µM
